Experimental data of several laboratories.
Each numbered part is a random draw from the data of one study; scales do not carry over between parts.

Set 1
Target: Interferon regulatory factor 7, full length, phosphomimetic (IRF7, Homo sapiens, UniProt Q92985, residues 1-503, S471D/S472D/S475D/S476D/S477D/S483D/S484D/S487D)
Technique: protein-binding microarray
Form: double-stranded DNA, one strand shown
Sample: in vitro
Concentration: 2200 nM top
Setting: 60-bp whole probe
Added: salmon DNA 0.4 mg/ml
Relative to: random background probes
Direction: higher = stronger binding
Shared flanks, not repeated: GCCTAGCAC … GTCTTGATTCGCTTGACGCTGCTG
Residues (chain): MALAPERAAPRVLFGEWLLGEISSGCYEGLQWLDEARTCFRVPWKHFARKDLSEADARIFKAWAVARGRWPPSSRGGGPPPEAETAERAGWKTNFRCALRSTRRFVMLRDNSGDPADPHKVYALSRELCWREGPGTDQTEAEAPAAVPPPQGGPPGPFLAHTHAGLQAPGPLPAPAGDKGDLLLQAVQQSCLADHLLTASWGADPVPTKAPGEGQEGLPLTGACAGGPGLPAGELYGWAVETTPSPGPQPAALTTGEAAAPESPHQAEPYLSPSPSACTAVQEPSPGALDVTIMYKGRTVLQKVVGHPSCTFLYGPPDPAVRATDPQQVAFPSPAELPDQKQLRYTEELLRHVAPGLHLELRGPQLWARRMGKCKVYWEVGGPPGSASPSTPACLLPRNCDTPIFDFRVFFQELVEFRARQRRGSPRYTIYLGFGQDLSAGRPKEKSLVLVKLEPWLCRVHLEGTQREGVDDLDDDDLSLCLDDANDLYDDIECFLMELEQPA
Strand | fitted relative affinity [z-score]
TCAATTTTCAGAATTTAACTGTGCTAG | 0.825
GACGGTATCGGTACTGGGGACGTGCTA | -0.21
AGGCCTCTGGGATCCCAGTCGGTGCTA | -0.6
TTAGGTTCCGGGTTTCGGTTAGTGCTA | 5.04
CTGGAGAGACGGAGTCTCCAGTGCTAG | -0.56
GAAGAACTGAGTCTCGAGACGTGCTAG | -0.432
GACGGACTGGGTCTGGGGACGTGCTAG | -0.888
AAGACTTTGGTTTGTACACCGTGCTAG | 0.436
TTAGGCCTGGGGACTGGGTTAGTGCTA | -1.19
ATCTCTTTCCTTACTTCCCAGTGCTAG | 3.08
TTAGGTACCGGGTATCGGTTAGTGCTA | -0.0437
CATTATTTCAATGCAAGGTGGTGCTAG | 0.44
TTAGGTTTCCTTTTCCTCTAGTGCTAG | 5.03
TTTGGTTTCGACTATCGGTTAGTGCTA | 5
TTAAATATCAGTCTCGATTAGTGCTAG | 0.0476
GACCATTTCAGACTGGAGACGTGCTAG | 0.553
TTTTCATTATTGTGTCAACTTGTGCTA | 2.33
GACGATATCAGTATCGAAACGTGCTAG | 0.593
GACCATATCGGGTATCGAGACGTGCTA | -0.147

Set 2
Target: RING finger protein unkempt homolog, zinc fingers 1-6, GST-SBP tag (UNK, Homo sapiens, UniProt Q9C0B0, residues 30-357)
Sequence of UniProt Q9C0B0 (30-357, looked up): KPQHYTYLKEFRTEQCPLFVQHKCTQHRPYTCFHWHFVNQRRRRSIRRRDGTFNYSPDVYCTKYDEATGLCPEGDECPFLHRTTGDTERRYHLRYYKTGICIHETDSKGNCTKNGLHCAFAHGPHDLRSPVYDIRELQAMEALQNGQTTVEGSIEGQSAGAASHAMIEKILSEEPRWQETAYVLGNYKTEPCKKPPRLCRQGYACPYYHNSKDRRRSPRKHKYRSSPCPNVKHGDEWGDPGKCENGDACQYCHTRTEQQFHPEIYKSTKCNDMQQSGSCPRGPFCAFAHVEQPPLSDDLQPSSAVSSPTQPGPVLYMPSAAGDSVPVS
Technique: RNA Bind-n-Seq
Form: RNA
Sample: in vitro
Concentration: not given
Setting: RNA with constant flanks, human-mouse chimeric sites, ends assumed
Relative to: input RNA pool
Direction: higher = stronger binding
Shared flanks, not repeated: GGGAGUUCUACAGUCCGACGAUC … CAACAGAGGAUUGAGCAUCA
Strand | bound/input enrichment [ratio]
AAAGAGUGGAUAGAGUGUGCACACGGGAUCGGUGGGACCCGGGCGAAGAAAGAGUGCAAGAUAGAGUUCGAUGACUUCGAAGAGUGCUUGCUUCGGUACAAAACGAUGAGGCGAAUGCAU | 0.312
CAGGGCAUCAUCUCUCGUGCUGUUAGACACCUGUUCAAGAGUAUUGAUGAGAAAAAGACCUCAGCGAUUAAAAAUGGGCUGCCCCCUCCAGAUUUUAAAGUGAAUGCCCAGUUCCUAGAG | 0.378
CUGUGACCACAAGAUCCUACCUGAGUGGCAGCUGAAGUUGACUCCCUCCCCUUCCCUGCCUAGUUUCCCACUGCCCCCCCAUCCCCCAGUGUCGGCUGAGAUGUUGCCUCUGCACGGUUC | 1.18
GUUGCCAGCUUCCGGUUCCGUUGGGCUCGGUUCUCUCCUGAGCUACGGUCCCUGGCACUCUCAAUCCGCCAUCCAACAAACAUGGAUCAGGUAAUGCUGCAGUUUGUGCCCAGCCGGCAG | 0.23
GCUCCUCCCCGCUCUGCAGCCUGGGGACACUGGGCUGGGACCAGAAUCUUAUUUUUUUUUAAAACUCUCAGUGUAACUGUAUCCCGUGACAUUUCAUUUUUUUUAAAAGAAAAAAACUUU | 0.547
GCACUUGGGAAUGUAAUCAGCGCCUUGGGGGACAAGAGCAAGAGAGCCACACAUGUCCCUUACAGAGACUCUAAGCUGACAAGACUCUUGCAGGAUUCCCUUGGGGGUAACAGCCAAACC | 0.12
AAUUUCCUGUCAUACUUUUUAGACAUUCACAUCAGACUUACAGAGCAUUGGGCCUCUUUCUAGGUUUGUGUUAUUUCUCAGCUAUGGAUAUGAUCAAAUGAGAACACUGCUUAACUAAUG | 0.49
ACACAAUAUGAGACCAACAGCAUGGACUUCAAAGUUGGGGCGGAUGGGACAGUCUUCGCCACCCGGGAGCUGCAGGUCCCCUCAGAGCAGGUGGCGUUCACGGUGACUGCAUGGGACAGC | 0.436

Set 3
Target: Prothrombin, mature alpha-thrombin (F2, Homo sapiens, UniProt P00734)
Technique: aptamer microarray, sandwich
Form: DNA with 2'F-ANA
Sample: in vitro
Concentration: 200 nM
Setting: whole 15-mer aptamer, many near background
Added: Cy3 exosite-II aptamer, 400 nM
Direction: higher = stronger binding
Strand: GGTTGGTGTGGTTGG
Modification | mean fluorescence intensity [a.u.]
2'F-ANA at 1 3 6 8 9 10 | 78.1
2'F-ANA at 1 2 3 6 7 9 10 11 15 | 59.6
2'F-ANA at 2 5 6 8 10 11 14 15 | 50
2'F-ANA at 2 10 12 14 15 | 91
2'F-ANA at 3 7 8 9 11 13 15 | 967
2'F-ANA at 1 2 5 8 10 12 | 49
2'F-ANA at 2 6 10 11 12 13 | 146
2'F-ANA at 1 6 7 8 11 12 13 | 280
2'F-ANA at 3 8 9 11 14 | 641
2'F-ANA at 3 4 5 6 7 8 13 14 | 55
2'F-ANA at 1 3 4 6 7 8 9 12 13 14 15 | 76.1
2'F-ANA at 1 4 5 10 13 14 | 45.9
2'F-ANA at 1 5 6 7 8 9 10 12 14 | 47.7
2'F-ANA at 1 2 3 6 8 9 10 11 12 14 15 | 77.1
2'F-ANA at 1 3 4 6 8 9 14 | 62.2
2'F-ANA at 4 6 7 8 9 10 11 12 13 14 | 58.7
2'F-ANA at 1 4 5 6 7 10 11 13 14 | 50.9
2'F-ANA at 1 3 4 5 9 11 12 13 | 127
2'F-ANA at 1 3 6 7 8 9 10 11 13 14 15 | 66.5
2'F-ANA at 1 3 4 5 6 10 12 15 | 49.8
2'F-ANA at 4 6 7 8 10 13 15 | 70.8
2'F-ANA at 1 5 8 11 14 | 47.6
2'F-ANA at 3 5 7 9 11 12 15 | 236

Set 4
Target: RNA binding protein fox-1 homolog 2, RRM domain, GST-SBP tag (RBFOX2, Homo sapiens, UniProt O43251-10, residues 100-194)
Technique: RNA Bind-n-Seq
Form: RNA
Sample: in vitro
Concentration: 365 nM
Setting: natural RNA segment, single round, ends assumed
Relative to: no-protein control
Direction: higher = stronger binding
Shared flanks, not repeated: GGGAGUUCUACAGUCCGACGAUC … UGGAAUUCUCGGGUGCCAA
Target sequence (chain): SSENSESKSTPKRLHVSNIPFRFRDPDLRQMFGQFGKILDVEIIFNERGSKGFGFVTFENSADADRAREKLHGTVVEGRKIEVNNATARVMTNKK
Strand | RBNS enrichment (R)
UAAAAAUAAACUAGUAAAAGAUUAUCAUGUUUUAUGACCAUCAACGGAAUCAUUUUAAUGUGUUCCUCAGAACGUAUGUAUUGACUUCUACAAUAAAUGACUGGCUGGUG | 0.431
CUGUAGUACUGGUGUCAUGGAAAUAUAUGUUAUUUCCACAGUCAUUUCAUUAAAGAUGAAAACUUUAUUCUUGCUGUGAUUUGUACUUAUAUAAGUGUGGAUCAUCAUAA | 0.305
AGGAAUGACAGCAGACUACAAAGCAAAUAAGAUAUACUGAGCCUCAACAGAUUGCCUGCUCCUCAGAGUCUCUCCUAUUUUUGUAUUACCCAGCUUUCUUUUUAAUACAA | 1.84
UUUAUUUGUUUCUGGUUUAGCCUCAAGGGCUGGAAGCUGGGCCUGUAUUGAAUAAACAGAAACCCAGACAGAAUGCAUGGGCUCCUUGCAAUGGCUCAGACCCUUUGCAG | 2.02
GGAAGAAAAGUAGUUCUGGUAUGUUUCAUUGAUCCCCAGAUACCUUCCAAUCUGGACAUGAUGGGGCUGAUUCCAGAUGGUUUUUCUGAAAUUUCAUUAAGGUAGGUCAG | 0.343
GGAGCCUGCCGAUCCUAGCUCAGAGAGGCUGCCUUCAUGGCCUGUUACUCCAGCUAACGCUUUGAUUCCAACACUAGCAUUUGUCACGUUAGGACGAACUGAAACGGUAC | 0.249
AACACAAGGCUCCAAGACCUAGGCUCAUGGACGAGAUGGGAAGGCACAGGGAGAAGGGAUAACCCUACACCCAGACCCCAGGCUGGACAUGCUGACUGUCCUCUCCCCUC | 0.365
GACUACAAGAGGAGCAACCCAGAGGAUACACUCCCCUCUCUGGUGUCUGAGGAGUGUGAACCGUUGGGGUCACUUUAGGCCCAGAGUAACUCUCCCAGAAGAAAACUUGU | 0.329

Excerpt of the above (set 1):
Strand | fitted relative affinity [z-score]
GAAGAACTGAGTCTCGAGACGTGCTAG | -0.432
AAGACTTTGGTTTGTACACCGTGCTAG | 0.436
AGGCCTCTGGGATCCCAGTCGGTGCTA | -0.6
TTTTCATTATTGTGTCAACTTGTGCTA | 2.33
GACGGTATCGGTACTGGGGACGTGCTA | -0.21
GACGGACTGGGTCTGGGGACGTGCTAG | -0.888
TTTGGTTTCGACTATCGGTTAGTGCTA | 5
CTGGAGAGACGGAGTCTCCAGTGCTAG | -0.56
TTAGGTACCGGGTATCGGTTAGTGCTA | -0.0437
GACGATATCAGTATCGAAACGTGCTAG | 0.593
